Results of several laboratories.
Each line is one published result; not all experiments were run side by side. Numbers after ± are the reported error.

Compound	tested on	test	system	conditions	scale	endpoint	value
CN1CCC[C@]1(C)/C=C/S(=O)(=O)NC(=O)Nc1c2c(cc3c1CCC3)CCC2			human, whole blood ex vivo	100 mg single dose, 12 h, single ascending dose, added: LPS and ATP		IL-1β inhibition	99.3%
Cc1ncsc1-c1ccc(C(C)NC(=O)C2CC(O)CN2C(=O)C(NC(=O)CCCCCCCCCCN2CCCC(Nc3ncc(Cl)c(Nc4ccccc4S(=O)(=O)C(C)C)n3)C2)C(C)(C)C)cc1 (centres unmarked)	22Rv1	RNA-seq, measured: ZMYM3 mRNA		concentration not given	baseline: DMSO	log2 fold change	-1
COCC/N=C(\S)N/N=C(\C)c1ccccc1O	Mus musculus	gene silencing, high-content imaging	LDR reporter GFP cells	retest, mean of two runs		EC50	10000 nM
COC1OC(C)C(OS(=O)(=O)O)C(OC2OC(C)C(OS(=O)(=O)O)C(OC3OC(C)C(OS(=O)(=O)O)C(OC4OC(C)C(OS(=O)(=O)O)C(OS(=O)(=O)O)C4O)C3O)C2O)C1O (centres unmarked)			human plasma	128 µg/mL		prothrombin time	15.1 ± 0.2 s
CCC(=O)N1CCN(c2ccc(NC(=O)c3ccc([N+](=O)[O-])o3)cc2Cl)CC1	Mus musculus	gene silencing, high-content imaging	LDR reporter GFP cells	retest, mean of two runs		EC50	1260 nM
CNS(=O)(=O)Nc1nccc(Cc2c(C)c3ccc(Oc4ncccc4F)cc3oc2=O)c1F	A253	cell viability		7 days		IC50	62.7 nM
Nc1ncc(-c2cc(-c3cnn(CC(F)(F)F)c3)ncc2F)nc1C(=O)NC1CNCC(F)C1 (centres unmarked)	STK16	KINOMEscan		1 µM	baseline: DMSO control	remaining binding	84%
O=C(N/N=C/c1cc[n+](CC2CC2)c2ccccc12)c1ccc2ccc3ccc(C(=O)N/N=C/c4cc[n+](CC5CC5)c5ccccc45)nc3c2n1	hp2 hairpin duplex DNA	FRET melting		1 µM, added: ds26 10 µM		ΔTm	0.8 ± 0.1 °C
CC(C)(C)c1cc(-c2ccc3cccnc3n2)nc(-c2ccc3cccnc3n2)c1.COc1ccncc1.[Cl-].[Cl-].[Ru+2].c1ccc2cc3nc4c5cccnc5c5ncccc5c4nc3cc2c1	A-375	resazurin		added: light 733 nm, 100 J/cm2	baseline: dark EC50 over light EC50	phototoxicity index	32
C[n+]1cccc2cc(/C=N/NC(=O)c3ccc4ccc(C(=O)N/N=C/c5ccc6c(ccc[n+]6C)c5)nc4n3)ccc21	hp2 hairpin duplex DNA	FRET melting		1 µM		ΔTm	0.8 ± 0.4 °C
Cc1ccc(C(C)C)c(OCc2ccc(C(=O)N/N=C/c3cccc(O)c3O)cc2)c1	Mus musculus	gene silencing, high-content imaging	LDR reporter GFP cells	30 h, retest, mean of two runs		Emax	40%
C[n+]1cccc2cc(/C=N/NC(=O)c3cc(C(=O)N/N=C/c4ccc5c(ccc[n+]5C)c4)ncn3)ccc21	MYC parallel G4 DNA	FRET melting		1 µM, DNA 0.2 µM, added: duplex DNA competitor 10 µM		ΔTm	2 ± 0.4 °C
C=CC(=O)Nc1cccc(Cn2ncc3cnc(Nc4cnn(CCOC)c4)nc32)c1	human ABL1(F317L)-nonphosphorylated	KINOMEscan		100 nM	baseline: control	binding	17%
O=C(N/N=C/c1ccc2c(ccc[n+]2Cc2ccccc2)c1)c1cc(C(=O)N/N=C/c2ccc3c(ccc[n+]3Cc3ccccc3)c2)ncn1	hp2 hairpin duplex DNA	FRET melting		1 µM, added: ds26 10 µM		ΔTm	1 ± 0.6 °C
COC1CN([C@H]2CC[C@H]([C@@]3(C)Oc4c(Cl)cc(C(=O)NCc5c(SC)cc(C)[nH]c5=O)c(C)c4O3)CC2)C1		RNA-seq, measured: DYNC2H1	human, whole blood	dose not given, 24 h	baseline: pretreatment baseline	log2 fold change	1.48
C[n+]1ccc(/C=N/NC(=O)C(=O)N/N=C/c2cc[n+](C)c3ccccc23)c2ccccc21	MYC parallel G4 DNA	FRET melting		1 µM, DNA 0.2 µM		ΔTm	3.4 ± 0.6 °C
C=CC(=O)N1[C@H](c2ccc3c(c2)OCO3)c2[nH]c3ccccc3c2C[C@@H]1C(=O)N1CCN(C)CC1	human cyclin E1 N112C-3xFLAG:CDK2	co-IP with TMT proteomics, measured: TK1		concentration not given, P04183	baseline: wild type DMSO	relative co-enrichment	80%

Repeated from above:
Compound	tested on	test	system	conditions	scale	endpoint	value
C=CC(=O)Nc1cccc(Cn2ncc3cnc(Nc4cnn(CCOC)c4)nc32)c1	human ABL1(F317L)-nonphosphorylated	KINOMEscan		100 nM	baseline: control	binding	17%
O=C(N/N=C/c1ccc2c(ccc[n+]2Cc2ccccc2)c1)c1cc(C(=O)N/N=C/c2ccc3c(ccc[n+]3Cc3ccccc3)c2)ncn1	hp2 hairpin duplex DNA	FRET melting		1 µM, added: ds26 10 µM		ΔTm	1 ± 0.6 °C
